# Assay results of several laboratories.
# Every numbered part comes from another study and shows a few of its results, in no order. Changes are numbered by the printed parent chain.

# Series 1
# Target: RNA binding protein fox-1 homolog 2, RRM domain, GST-SBP tag (RBFOX2, Homo sapiens, UniProt O43251-10, residues 100-194)
# Technique: RNA Bind-n-Seq
# Form: RNA
# Sample: in vitro
# Tested at: 365 nM
# Setting: natural RNA segment, single round, ends assumed
# Baseline: no-protein control
# Reading: higher = stronger binding
# All sequences stand within: GGGAGUUCUACAGUCCGACGAUC … UGGAAUUCUCGGGUGCCAA
# Residues (chain): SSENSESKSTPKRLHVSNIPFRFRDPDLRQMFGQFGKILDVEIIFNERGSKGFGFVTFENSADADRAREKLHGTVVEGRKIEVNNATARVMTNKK
Sequence,RBNS enrichment (R)
GACUGGGACAAAGGAGCCGUGAAACACGCAAGGAGCUUCUGGCUUCUCAGCUUUGAGACCUGGGCUCUUUGGAGCACAGAGAACUUUGAUUUUUAAGCUUCUACAGAUAU,0.346
UGAGGGUUUUAGACAAUCUCUAGGAAAGGGAUACAAAACAGAUCCGAUGGAAGAAACCUACUUCCCUAUCCUGCCUAUCCUGCCCCUCAACCUCUUCAUUCCUAAUUCCU,0.488
GAACUUUUUCGCUUCUGUAAGUAUGCUCUAUGCACCUCUAACGUUUUAUCCUGUAUUUAUAUGUUGUACACAGUACUGGCCAAUUCUGUAAAUGGAUGUAUUGUACAGAG,0.639
GAGAUAUCUUUUUAGGAUCUGUUAGGAAUAAGAUUGAUAUUGUAUUGUGUGUAACCUGCACAAUGUGGAAAGCUGAUGAACCUGUGCCUCCGUGCUGUCAGUGUGGUGUG,0.695
UUAUAAACUAUCUGUAGCAAUUAGGGUUUUUAUUUUACAUUAAAAAUGUAAACUGCUCCCCCUCUCCCUUGCAGCCCUACGUGUUGAGGUUCUCUUGCAAUCUGUGUUAA,0.382
AAGCUCAGGUUAAUACAAGCUGAUUGUUCAGUGUCUUAAGACUUAUGCUGUUUCCAAAAGGCCAAAUAAACCAGGAUUUUCUCUGGAUGCUUGGAGAAAGAAGAAACCCU,0.311
UAUCCUCUCAUGGGUGAUUAUCUCAGUGGUGUCACCAGGGGCUUCCUCCCAGAAGUCAGUCAUCCCCAGGCCGUGCACCCUUUUCAGCUGGAUGAGAGCCAGGGAUGCAU,0.48
CCCUUGGAGCAAAUUCUGCCUAAGCCUCUCACCAAAAUUGAAAUGAAAACAGUUCCACUGACUACAAAAGAGGAAAAAGGCAUAGGGAUAUUCCCUGGUAUCAGUGUAAU,0.359
CCUCAGUCCCUGCUCCAAACUAUGAAGCUCACCCUUCAUUUUUCCUCCCUGCUAUUGUGGACCUAAGCAAUUACAGUUUAAAUUCUGUAUACAGCACUAGUCAAGACAAU,0.306
UUUUUGUAGUCAGUGUUAAUAAAACGGAUCCUGUUUGGGCCUUCAUUGUUAAGGUGGACUUCAUGGCCACUGGAAGGUCUGUUUUGGUGUUACCUGAGUGUGACACAGGC,0.353
AAUCACUAGAUUAGAAAACACGCAGUAUGAUGCGGCCAACGGCAUGGACGACGAAGAAGACUUCAACAAUUCACCUGCCCUGGGGAACAACAGCCCGUGGAACAGUAAAC,0.328
UUUGAAAUGAUGAUAAUCCUAAUUAUAUAAAAAUAUAUAUAUAAACACACAUAUAUAUAGUGAUUUCUAAAGAUUUGUUUACUUUUGUGUUUUGUUUUACUGUACUAAGA,1.4

# Series 2
# Read-out: peptide binding
# Form: peptide
# Sample: yeast competitive growth
# Added: B2-Cln2 chimera
# Reading: direction not given
Molecule,enrichment score
SMTDFYHSKRRLIFSK,-0.563
KRNLLNEFDRII,2.19
SSEVARHLLFQSHM,0.0442
PKNAKRNLSSEFAN,0.151
PKRAKRKLYTSEISSP,-0.116

# Series 3
# Target: ABI1, truncated, D143A, DHFR fusion (Arabidopsis thaliana)
# Technique: DHFR PCA, deep sequencing
# Sample: yeast
# Setting: methotrexate growth selection, single substitutions
# Added: (+)-ABA 710 µM
# Baseline: wild-type fitted maximum
# Reading: higher = stronger binding
# Parent: PYL1, truncated, DHFR fusion (Arabidopsis thaliana); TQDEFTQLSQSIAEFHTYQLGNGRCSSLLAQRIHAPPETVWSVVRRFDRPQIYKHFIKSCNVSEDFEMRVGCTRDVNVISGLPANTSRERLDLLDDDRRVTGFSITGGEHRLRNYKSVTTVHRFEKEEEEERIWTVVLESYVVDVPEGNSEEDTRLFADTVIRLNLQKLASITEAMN
Change,relative binding score
Q7L,100%
I162D,6%
P83A,96.8%
T106R,93.1%
L82E,-2.08%
F56S,24.4%
P37G,70.2%
N177A,85.7%
I133K,116%
R111W,50%
L166M,90.1%
R24Q,101%
V78Q,36.7%
K168H,102%
M176K,111%
T160L,102%

# Series 4
# Target: PABPC1L2, full length, GST fusion (mouse, UniProt A0ABA7IW68)
# Technique: RNAcompete
# Form: RNA
# Sample: in vitro
# Tested at: 20 nM
# Setting: 7-mer, probes averaged, single round
# Baseline: mean of 7-mers
# Reading: higher = stronger binding
# Construct (chain): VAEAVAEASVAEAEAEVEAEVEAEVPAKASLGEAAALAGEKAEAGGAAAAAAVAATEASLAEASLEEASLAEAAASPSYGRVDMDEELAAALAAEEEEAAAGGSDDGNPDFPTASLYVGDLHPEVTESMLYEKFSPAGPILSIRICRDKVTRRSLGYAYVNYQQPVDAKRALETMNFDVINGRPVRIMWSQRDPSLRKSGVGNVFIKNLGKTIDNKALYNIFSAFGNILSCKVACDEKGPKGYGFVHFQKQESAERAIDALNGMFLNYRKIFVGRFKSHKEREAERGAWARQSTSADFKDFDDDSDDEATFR
Sequence,7-mer Z-score
GGUAAUA,-0.0663
ACGCUGU,-0.289
UAGCCCA,-0.0536
CGACCUG,-0.331
AACCUUA,-0.00289
AUUUACU,0.0732
UUCACCA,-0.0101
GAACAGA,0.222
UCCAAUA,-0.0518
UCUUCUC,-0.414
GACUUGG,0.095
GGCUAAC,0.0587
GCAGGAU,0.206
AUGGACC,0.046
ACUGAUG,-0.175
GCCAACC,-0.18
UGGUUCU,-0.277
AACCAGC,-0.0047

# Series 5
# Target: POU domain, class 6, transcription factor 1, POU and homeodomain (POU6F1, Homo sapiens, UniProt Q14863, residues 311-611)
# Technique: protein-binding microarray
# Form: hairpin DNA
# Sample: in vitro
# Tested at: not given
# Setting: whole hairpin DNA, median over replicate spots
# Baseline: not given
# Reading: higher = stronger binding
# All sequences stand within: GAGGCC … GGCCTCACACTCTT
# Construct (chain): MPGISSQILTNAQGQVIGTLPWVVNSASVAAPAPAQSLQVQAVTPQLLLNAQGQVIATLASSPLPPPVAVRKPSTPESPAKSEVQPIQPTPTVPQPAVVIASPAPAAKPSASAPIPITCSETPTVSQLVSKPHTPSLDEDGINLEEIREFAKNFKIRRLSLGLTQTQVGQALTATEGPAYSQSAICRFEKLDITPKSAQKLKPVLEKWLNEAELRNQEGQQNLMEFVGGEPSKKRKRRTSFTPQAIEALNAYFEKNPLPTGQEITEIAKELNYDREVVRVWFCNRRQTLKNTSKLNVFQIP
Sequence,median fluorescence
ATAATGACGTGCCTCCTGGCACGTCATTAT,872 a.u.
ATAATGAGCGGCCTCCTGGCCGCTCATTAT (5mC at 15 27),2670 a.u.
ATAATTAGGTGCCTCCTGGCACCTAATTAT (5mC at 29),1340 a.u.
ATAATGAGCTGCCTCCTGGCAGCTCATTAT,3250 a.u.
ATACTGAGGTGCCTCCTGGCACCTCAGTAT,347 a.u.
ATACGGAGGTGCCTCCTGGCACCTCCGTAT,328 a.u.
ATCGTGAGGTGCCTCCTGGCACCTCACGAT (5mC at 9),328 a.u.
ATACGTAGGTGCCTCCTGGCACCTACGTAT (5mC at 10 32),348 a.u.
ATACTTAGGTGCCTCCTGGCACCTAAGTAT (5mC at 10),408 a.u.
AGAATGAGGTGCCTCCTGGCACCTCATTCT,434 a.u.
ATCGTGAGGTGCCTCCTGGCACCTCACGAT (5mC at 33),324 a.u.
ATGATGAGGTGCCTCCTGGCACCTCATCAT,441 a.u.
ATACGGAGGTGCCTCCTGGCACCTCCGTAT (5mC at 10),337 a.u.
TTAATGAGGTGCCTCCTGGCACCTCATTAA,2160 a.u.
ATGATGAGGTGCCTCCTGGCACCTCATCAT (5mC at 34),456 a.u.
ATCATGAGGTGCCTCCTGGCACCTCATGAT (5mC at 9),382 a.u.
AAAATGAGGTGCCTCCTGGCACCTCATTTT,779 a.u.
GTAATGAGGTGCCTCCTGGCACCTCATTAC (5mC at 36),1090 a.u.
ATAATGAGATGCCTCCTGGCATCTCATTAT,12200 a.u.
ATACTGAGGTGCCTCCTGGCACCTCAGTAT (5mC at 10),352 a.u.
ATAATGCGGTGCCTCCTGGCACCGCATTAT (5mC at 13),534 a.u.
ATAATGAGGCGCCTCCTGGCGCCTCATTAT,2000 a.u.
ATAATTAGCGGCCTCCTGGCCGCTAATTAT (5mC at 15),1720 a.u.
ATACGGAGGTGCCTCCTGGCACCTCCGTAT (5mC at 32),346 a.u.

# Series 6
# Target: Sal-like protein 4, full length isoform B (SALL4, Homo sapiens, UniProt Q9UJQ4-2, residues 1-616)
# Technique: universal PBM
# Form: double-stranded DNA, one strand shown
# Sample: in vitro
# Tested at: not given
# Setting: 8-mer, flanks averaged, mean of replicates
# Reading: higher = stronger binding
Sequence,E-score
CTTCTCGC,-0.0367
GTGAAGAA,0.0518
CTATTTTA,0.306
GCGAACAC,-0.22
GCAGTCCA,-0.0884
GATCCATC,-0.112
CGTATTCC,0.0831
ACGTTCGA,-0.0292
ACAGGTCT,-0.021
AAGACGCC,-0.11
CGACCAAG,-0.185
ATCGGCGG,-0.213
ATATCTTC,0.273
AGGTTTGC,-0.0765
ATGATCAT,0.192
AACTTCGT,-0.0725
CGCTATAG,0.0789
CCACAAGC,-0.18
TGAACGAA,0.0487
CATTGAAC,0.112
